Measured values gathered from unrelated publications.
Every numbered part comes from another study and shows a few of its results, in no order. Values joined by “and” are separate records of one study, mostly repeats; a detail may differ.
Sequence of UniProt O75582 (whole entry, looked up): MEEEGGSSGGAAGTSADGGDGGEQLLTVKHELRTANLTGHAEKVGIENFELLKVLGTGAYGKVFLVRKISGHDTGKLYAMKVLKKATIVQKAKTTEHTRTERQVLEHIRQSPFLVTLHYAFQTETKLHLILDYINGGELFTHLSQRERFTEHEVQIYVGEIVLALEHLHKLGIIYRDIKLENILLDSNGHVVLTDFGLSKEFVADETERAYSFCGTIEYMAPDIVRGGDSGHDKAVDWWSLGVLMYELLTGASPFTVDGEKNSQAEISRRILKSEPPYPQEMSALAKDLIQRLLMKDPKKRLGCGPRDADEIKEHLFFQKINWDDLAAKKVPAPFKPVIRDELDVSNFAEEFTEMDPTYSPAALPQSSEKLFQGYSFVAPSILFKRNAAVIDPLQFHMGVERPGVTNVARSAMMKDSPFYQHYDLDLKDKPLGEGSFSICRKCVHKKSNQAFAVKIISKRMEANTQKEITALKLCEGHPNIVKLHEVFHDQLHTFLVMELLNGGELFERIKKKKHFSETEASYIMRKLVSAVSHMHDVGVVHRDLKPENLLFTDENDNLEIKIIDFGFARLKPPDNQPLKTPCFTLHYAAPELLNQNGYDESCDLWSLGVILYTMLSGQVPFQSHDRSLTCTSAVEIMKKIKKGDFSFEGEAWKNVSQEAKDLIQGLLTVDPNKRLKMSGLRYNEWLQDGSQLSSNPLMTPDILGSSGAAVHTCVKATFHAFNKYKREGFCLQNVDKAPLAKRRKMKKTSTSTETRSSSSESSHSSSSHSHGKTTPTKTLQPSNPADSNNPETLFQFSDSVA
Sequence of UniProt Q16816 (whole entry, looked up): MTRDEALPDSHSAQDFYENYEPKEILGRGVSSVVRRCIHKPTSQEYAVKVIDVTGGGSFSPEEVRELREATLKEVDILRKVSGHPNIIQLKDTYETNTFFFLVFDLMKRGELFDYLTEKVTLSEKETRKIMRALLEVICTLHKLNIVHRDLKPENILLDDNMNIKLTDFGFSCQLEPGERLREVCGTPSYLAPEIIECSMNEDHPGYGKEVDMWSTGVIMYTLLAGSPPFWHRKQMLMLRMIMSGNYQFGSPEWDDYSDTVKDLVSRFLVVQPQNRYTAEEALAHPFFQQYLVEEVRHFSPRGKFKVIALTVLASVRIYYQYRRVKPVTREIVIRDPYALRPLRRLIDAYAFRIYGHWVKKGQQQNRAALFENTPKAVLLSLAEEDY
Sequence of UniProt P54756 (whole entry, looked up): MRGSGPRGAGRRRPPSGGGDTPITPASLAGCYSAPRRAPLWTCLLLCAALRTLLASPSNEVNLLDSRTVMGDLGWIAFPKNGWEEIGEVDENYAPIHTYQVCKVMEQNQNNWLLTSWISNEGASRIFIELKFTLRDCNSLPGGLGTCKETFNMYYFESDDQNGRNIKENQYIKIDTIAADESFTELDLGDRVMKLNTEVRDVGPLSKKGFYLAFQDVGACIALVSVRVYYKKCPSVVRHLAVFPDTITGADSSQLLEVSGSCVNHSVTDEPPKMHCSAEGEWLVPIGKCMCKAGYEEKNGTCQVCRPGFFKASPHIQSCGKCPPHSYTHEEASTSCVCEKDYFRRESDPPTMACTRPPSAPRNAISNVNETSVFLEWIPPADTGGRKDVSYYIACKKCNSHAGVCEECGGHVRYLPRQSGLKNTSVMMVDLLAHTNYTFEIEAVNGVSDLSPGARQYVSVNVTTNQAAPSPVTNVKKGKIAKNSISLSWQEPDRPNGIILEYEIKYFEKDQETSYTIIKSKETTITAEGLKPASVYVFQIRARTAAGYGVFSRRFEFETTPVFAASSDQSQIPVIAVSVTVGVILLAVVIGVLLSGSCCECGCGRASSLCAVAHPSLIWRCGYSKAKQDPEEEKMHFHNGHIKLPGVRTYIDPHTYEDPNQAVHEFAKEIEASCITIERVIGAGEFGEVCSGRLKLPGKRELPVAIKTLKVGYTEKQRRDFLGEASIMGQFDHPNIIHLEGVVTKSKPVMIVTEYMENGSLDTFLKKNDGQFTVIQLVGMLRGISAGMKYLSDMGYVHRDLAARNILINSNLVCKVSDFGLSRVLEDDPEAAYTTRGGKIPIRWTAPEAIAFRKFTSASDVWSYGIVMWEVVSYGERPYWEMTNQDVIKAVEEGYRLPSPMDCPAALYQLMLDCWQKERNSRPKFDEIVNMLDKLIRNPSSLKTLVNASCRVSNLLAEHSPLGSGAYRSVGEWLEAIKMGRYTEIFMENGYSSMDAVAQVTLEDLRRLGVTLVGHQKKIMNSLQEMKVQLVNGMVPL
Sequence of UniProt Q14164 (whole entry, looked up): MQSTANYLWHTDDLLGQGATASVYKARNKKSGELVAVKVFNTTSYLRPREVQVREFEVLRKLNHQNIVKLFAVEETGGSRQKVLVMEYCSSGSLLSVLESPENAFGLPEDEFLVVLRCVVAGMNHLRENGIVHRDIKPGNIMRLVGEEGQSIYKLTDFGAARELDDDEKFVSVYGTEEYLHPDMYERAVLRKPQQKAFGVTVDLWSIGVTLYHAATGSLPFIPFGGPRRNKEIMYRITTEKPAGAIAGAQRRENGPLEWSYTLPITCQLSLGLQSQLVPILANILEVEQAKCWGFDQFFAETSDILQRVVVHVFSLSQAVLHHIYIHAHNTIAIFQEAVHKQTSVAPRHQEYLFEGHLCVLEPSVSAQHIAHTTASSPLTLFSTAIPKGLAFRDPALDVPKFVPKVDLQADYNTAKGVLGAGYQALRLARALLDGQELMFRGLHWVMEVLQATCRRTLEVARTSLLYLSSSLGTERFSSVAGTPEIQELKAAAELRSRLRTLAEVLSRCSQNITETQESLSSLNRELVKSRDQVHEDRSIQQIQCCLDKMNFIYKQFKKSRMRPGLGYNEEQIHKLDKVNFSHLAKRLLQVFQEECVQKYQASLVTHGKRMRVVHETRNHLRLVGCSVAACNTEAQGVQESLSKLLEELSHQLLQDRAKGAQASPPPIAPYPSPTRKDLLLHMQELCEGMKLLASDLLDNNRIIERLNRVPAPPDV
Sequence of UniProt Q9BWU1 (whole entry, looked up): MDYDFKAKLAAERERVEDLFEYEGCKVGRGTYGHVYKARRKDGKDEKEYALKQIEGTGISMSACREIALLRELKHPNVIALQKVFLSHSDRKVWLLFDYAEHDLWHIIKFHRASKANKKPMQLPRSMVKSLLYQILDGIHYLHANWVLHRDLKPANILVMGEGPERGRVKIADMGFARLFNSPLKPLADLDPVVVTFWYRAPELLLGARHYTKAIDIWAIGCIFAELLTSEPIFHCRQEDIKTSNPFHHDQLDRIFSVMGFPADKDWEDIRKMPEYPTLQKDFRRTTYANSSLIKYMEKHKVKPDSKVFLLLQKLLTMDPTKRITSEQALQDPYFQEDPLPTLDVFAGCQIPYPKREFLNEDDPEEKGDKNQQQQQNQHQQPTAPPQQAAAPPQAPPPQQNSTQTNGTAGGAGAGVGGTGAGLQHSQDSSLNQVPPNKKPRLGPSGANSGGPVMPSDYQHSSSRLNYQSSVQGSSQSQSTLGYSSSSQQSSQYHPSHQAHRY
Sequence of UniProt O95819 (whole entry, looked up): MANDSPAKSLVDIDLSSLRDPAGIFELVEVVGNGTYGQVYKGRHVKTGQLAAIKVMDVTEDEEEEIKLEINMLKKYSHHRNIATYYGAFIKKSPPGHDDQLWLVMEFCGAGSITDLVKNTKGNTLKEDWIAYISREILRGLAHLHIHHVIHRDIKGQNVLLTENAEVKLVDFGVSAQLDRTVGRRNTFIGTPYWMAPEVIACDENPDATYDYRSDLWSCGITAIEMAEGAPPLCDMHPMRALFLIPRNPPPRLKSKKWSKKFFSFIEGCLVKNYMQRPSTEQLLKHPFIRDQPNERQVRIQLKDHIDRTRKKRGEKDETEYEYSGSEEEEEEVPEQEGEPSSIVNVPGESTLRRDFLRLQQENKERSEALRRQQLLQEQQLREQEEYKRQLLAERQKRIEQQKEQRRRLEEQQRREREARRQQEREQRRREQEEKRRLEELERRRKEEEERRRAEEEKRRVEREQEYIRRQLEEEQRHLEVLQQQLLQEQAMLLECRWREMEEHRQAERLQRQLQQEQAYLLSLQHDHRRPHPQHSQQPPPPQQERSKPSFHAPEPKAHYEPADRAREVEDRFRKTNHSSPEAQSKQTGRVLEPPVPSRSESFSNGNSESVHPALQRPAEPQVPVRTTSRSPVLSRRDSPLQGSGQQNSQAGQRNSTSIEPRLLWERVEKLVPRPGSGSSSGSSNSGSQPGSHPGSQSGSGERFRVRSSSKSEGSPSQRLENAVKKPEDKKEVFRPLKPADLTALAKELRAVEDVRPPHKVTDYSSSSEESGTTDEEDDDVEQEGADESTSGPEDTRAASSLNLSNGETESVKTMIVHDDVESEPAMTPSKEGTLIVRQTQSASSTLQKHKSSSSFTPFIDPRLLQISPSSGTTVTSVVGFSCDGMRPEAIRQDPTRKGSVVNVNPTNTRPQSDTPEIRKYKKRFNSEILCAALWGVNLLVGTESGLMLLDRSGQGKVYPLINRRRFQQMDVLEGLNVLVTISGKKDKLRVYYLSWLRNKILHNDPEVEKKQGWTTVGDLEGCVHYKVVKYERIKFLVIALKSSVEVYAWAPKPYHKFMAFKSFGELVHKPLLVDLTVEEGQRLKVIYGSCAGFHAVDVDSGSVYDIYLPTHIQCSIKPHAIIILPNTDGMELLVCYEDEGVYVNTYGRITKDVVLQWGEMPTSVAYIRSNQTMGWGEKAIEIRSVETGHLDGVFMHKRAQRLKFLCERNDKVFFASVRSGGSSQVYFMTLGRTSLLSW
Sequence of UniProt O75716 (whole entry, looked up): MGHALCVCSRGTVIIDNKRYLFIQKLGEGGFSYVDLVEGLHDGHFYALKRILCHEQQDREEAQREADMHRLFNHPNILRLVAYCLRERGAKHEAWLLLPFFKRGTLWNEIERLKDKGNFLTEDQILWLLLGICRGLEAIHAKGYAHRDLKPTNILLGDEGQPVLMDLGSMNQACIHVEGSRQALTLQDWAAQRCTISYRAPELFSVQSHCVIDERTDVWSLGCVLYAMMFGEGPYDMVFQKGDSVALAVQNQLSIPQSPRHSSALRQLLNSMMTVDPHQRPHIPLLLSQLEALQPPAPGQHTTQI

Sample 1
Structure (SMILES): CC(C)C[C@@H]1NC(=O)[C@@H](N(C)C(=O)[C@H](CC2CCC2)NC(=O)[C@@H]2C[C@@H](F)CN2C(=O)C2(C(F)(F)F)CC(F)(F)C2)CCCCNC(=O)C2(CC2)NC(=O)[C@H](Cc2cc(Cl)ccc2Cl)N(C)C1=O
| cell line | assay | setting | scale | cell count |
| --- | --- | --- | --- | --- |
| NCI-H446 | Vi-Cell counting | 60 nM, 3 days, added: Mps1 inhibitor 3 nM | reference: DMSO | 0.641 and 0.632 |
| MDA-MB-231, doxycycline-inducible E2F1 |  | 60 nM, 6 days, no doxycycline | reference: DMSO | 0.743 and 0.84 and 0.8 |
| Jurkat, doxycycline-inducible E2F1 |  | 200 nM, 6 days, doxycycline added | reference: DMSO | 0.333 and 0.229 and 0.261 |
| NCI-H446 sgCtrl | dose-response | 250 nM, 6 d | reference: DMSO-treated | 0.0845 and 0.0431 and 0.0717 |
| HCC4006 | Vi-Cell counting | 2 µM, 6 days | reference: DMSO | 0.0657 and 0.0894 and 0.125 |

Sample 2
Species: human
Medium: microsomes or S9
Tested at: 2 µM
Time: 0.5 h
| Compound | remaining compound [%] |
| --- | --- |
| COc1c(-c2ccc(F)c(F)c2)c(-n2cncn2)nc2ccc(F)cc12 | 49.9 |
| O=S(=O)(NCCn1c(-c2ccncc2)nc2ccccc21)c1ccc(Br)s1 | 2.68 |
| Cc1cc(-c2ccc(S(=O)(=O)N3CCOc4ccccc43)s2)n[nH]1 | 5.14 |
| Cc1cc(C(C)(C)C)cc(C)c1CS(=O)(=O)CCn1cccn1 | 0.699 |
| O=C(CN(CCc1ccccc1)S(=O)(=O)c1ccc(Cl)cc1)Nc1ccc2c(c1)OCCO2 | 7.97 |
| COc1cc(=O)[nH]cc1C(=O)N1CCOC(c2nc(C)cs2)C1 (stereo not drawn) | > 99 |
| O=S1(=O)CCC(S(=O)(=O)N2CCN(c3ccccc3)CC2)C1 (stereo not drawn) | 94.7 |
| COc1cc(Br)c(S(=O)(=O)N[C@@H]2CCCN(C(=O)c3ccccc3)C2)cc1OC | 37.5 |
| COc1cc(OC)c(OC)cc1CNC(C)(C)CC(C)(C)C | 81.4 |
| CCCc1nnc(-c2cc3ccccc3n2Cc2ccccc2)o1 | 39 |
| Oc1ccccc1O/C(=C/n1ccnc1)c1ccccc1 | 87.4 |

Sample 3
Compound: Cn1cc(/C=C2\C(=O)Nc3ccc(S(N)(=O)=O)cc32)c2ccccc21
Observed: enzyme activity
Mode: inhibitor
Tested at: 0.5 µM
Reference: control
| target | remaining activity [%] |
| --- | --- |
| CAMK2B (Homo sapiens, UniProt Q13554) | 86.5 |
| EPHB4 (Homo sapiens, UniProt P54760) | 57.4 |
| BLK (Homo sapiens, UniProt P51451) | 42.9 |
| STK17A (Homo sapiens, UniProt Q9UEE5) | 57.5 |
| STK16 (Homo sapiens, UniProt O75716) | 78.7 |
| Cyclin-dependent kinase 4, with cyclin D3 (CDK4, Homo sapiens, UniProt P11802) | 94 |
| PDPK1 (Homo sapiens, UniProt O15530) | 95 |
| RPS6KA6 (Homo sapiens, UniProt Q9UK32) | 6.55 |
| SRMS (Homo sapiens, UniProt Q9H3Y6) | 99.8 |
| AXL (Homo sapiens, UniProt P30530) | 49.2 |
| HIPK2 (Homo sapiens, UniProt Q9H2X6) | 82.6 |
| HIPK4 (Homo sapiens, UniProt Q8NE63) | 86.2 |
| WNK3 (Homo sapiens, UniProt Q9BYP7) | 99 |
| Cyclin-dependent kinase 1, with cyclin B (CDK1, Homo sapiens, UniProt P06493) | 49.6 |
| RPS6KA5 (Homo sapiens, UniProt O75582) | 80.9 |
| MAPKAPK3 (Homo sapiens, UniProt Q16644) | 91.5 |
| MAP4K4 (Homo sapiens, UniProt O95819) | 22.5 |
| PHKG1 (Homo sapiens, UniProt Q16816) | 20.6 |
| EPHB1 (Homo sapiens, UniProt P54762) | 68.7 |
| EPHA4 (Homo sapiens, UniProt P54764) | 80.5 |
| TSSK2 (Homo sapiens, UniProt Q96PF2) | 84 |
| Cyclin-dependent kinase 6, with cyclin D3 (CDK6, Homo sapiens, UniProt Q00534) | 81.4 |
| PRKACG (Homo sapiens, UniProt P22612) | 101 |

Sample 4
Compound: CCCCN(CCCC)C(=O)CN1C[C@H](c2cc(OC)c3c(c2)OCO3)[C@@H](C(=O)O)[C@@H]1CC(C)(C)CCC
Tested at: 1 µM
| target | observed | method | remaining binding [%] |
| --- | --- | --- | --- |
| FLT3 (Homo sapiens, UniProt P36888, D835Y) | cell-free assay | competition with immobilised ligand | 100 |
| BTK (Homo sapiens, UniProt Q06187) | cell-free assay | competition with immobilised ligand | 61.3 |
| WNK2 (Homo sapiens, UniProt Q9Y3S1) | cell-free assay | competition with immobilised ligand | 60.2 |
| IKBKE (Homo sapiens, UniProt Q14164) | cell-free assay | competition with immobilised ligand | 80.9 |
| CDK19 (Homo sapiens, UniProt Q9BWU1) |  | competition binding | 100 |
| PDGFRB (Homo sapiens, UniProt P09619) | cell-free assay | competition with immobilised ligand | 100 |
| PAK2 (Homo sapiens, UniProt Q13177) | cell-free assay | competition with immobilised ligand | 100 |
| Ribosomal protein S6 kinase alpha-5, C-terminal kinase domain (RPS6KA5, Homo sapiens, UniProt O75582) | cell-free assay | competition with immobilised ligand | 100 |
| LCK (Homo sapiens, UniProt P06239) | cell-free assay | competition with immobilised ligand | 100 |
| MAP3K13 (Homo sapiens, UniProt O43283) | cell-free assay | competition with immobilised ligand | 89.3 |
| SYK (Homo sapiens, UniProt P43405) | cell-free assay | competition with immobilised ligand | 100 |
| MAPK8 (Homo sapiens, UniProt P45983) | cell-free assay | competition with immobilised ligand | 100 |
| STK35 (Homo sapiens, UniProt Q8TDR2) | cell-free assay | competition with immobilised ligand | 100 |
| EPHA5 (Homo sapiens, UniProt P54756) | cell-free assay | competition with immobilised ligand | 100 |
| MATK (Homo sapiens, UniProt P42679) | cell-free assay | competition with immobilised ligand | 62.8 |
